Experimental data pooled from the literature.
Each numbered part is a random draw from the data of one study; scales do not carry over between parts. Several values in a cell are separate wells, animals, samples, runs or records.
Chain of UniProt P52333 (whole entry, looked up): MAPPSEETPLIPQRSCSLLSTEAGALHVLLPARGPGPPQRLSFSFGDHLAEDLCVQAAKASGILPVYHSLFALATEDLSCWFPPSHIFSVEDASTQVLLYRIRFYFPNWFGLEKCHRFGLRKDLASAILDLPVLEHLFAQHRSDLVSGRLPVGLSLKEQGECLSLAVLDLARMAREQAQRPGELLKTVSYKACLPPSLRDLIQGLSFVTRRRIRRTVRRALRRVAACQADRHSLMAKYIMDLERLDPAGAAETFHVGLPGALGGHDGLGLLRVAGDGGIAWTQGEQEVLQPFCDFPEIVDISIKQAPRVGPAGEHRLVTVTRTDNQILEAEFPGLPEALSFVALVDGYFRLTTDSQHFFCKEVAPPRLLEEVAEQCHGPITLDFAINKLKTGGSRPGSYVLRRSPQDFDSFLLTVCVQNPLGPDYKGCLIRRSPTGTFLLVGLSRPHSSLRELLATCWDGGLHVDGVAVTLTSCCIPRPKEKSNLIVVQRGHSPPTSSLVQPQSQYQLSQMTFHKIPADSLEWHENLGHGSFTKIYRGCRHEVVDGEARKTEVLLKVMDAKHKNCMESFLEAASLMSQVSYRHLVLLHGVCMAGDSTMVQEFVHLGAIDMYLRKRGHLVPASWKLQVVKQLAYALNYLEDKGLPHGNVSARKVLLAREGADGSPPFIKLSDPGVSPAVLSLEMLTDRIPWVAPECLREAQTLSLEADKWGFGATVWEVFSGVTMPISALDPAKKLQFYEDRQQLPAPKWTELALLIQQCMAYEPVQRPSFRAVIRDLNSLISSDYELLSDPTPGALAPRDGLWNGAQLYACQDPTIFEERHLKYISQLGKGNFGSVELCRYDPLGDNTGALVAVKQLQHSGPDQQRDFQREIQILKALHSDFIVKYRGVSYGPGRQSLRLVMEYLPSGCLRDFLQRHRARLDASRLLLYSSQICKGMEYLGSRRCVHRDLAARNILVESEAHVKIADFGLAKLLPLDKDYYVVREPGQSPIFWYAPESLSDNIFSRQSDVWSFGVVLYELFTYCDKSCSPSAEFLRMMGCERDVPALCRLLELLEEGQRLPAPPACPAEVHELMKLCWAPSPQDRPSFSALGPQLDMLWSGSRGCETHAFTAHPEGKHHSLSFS
Chain of UniProt Q9Y2H1 (whole entry, looked up): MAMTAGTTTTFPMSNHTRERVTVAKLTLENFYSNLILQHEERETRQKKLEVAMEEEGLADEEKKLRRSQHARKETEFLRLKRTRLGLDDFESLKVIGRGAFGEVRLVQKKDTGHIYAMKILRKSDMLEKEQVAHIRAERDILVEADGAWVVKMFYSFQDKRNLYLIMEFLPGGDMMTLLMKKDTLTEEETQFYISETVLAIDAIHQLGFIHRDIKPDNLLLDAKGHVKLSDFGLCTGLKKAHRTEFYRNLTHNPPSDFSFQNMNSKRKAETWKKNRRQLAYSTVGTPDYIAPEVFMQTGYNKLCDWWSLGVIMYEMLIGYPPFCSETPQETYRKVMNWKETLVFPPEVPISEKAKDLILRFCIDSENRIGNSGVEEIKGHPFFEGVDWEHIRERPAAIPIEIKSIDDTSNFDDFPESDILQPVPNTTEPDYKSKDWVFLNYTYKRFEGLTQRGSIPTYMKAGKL
Chain of UniProt P08069 (whole entry, looked up): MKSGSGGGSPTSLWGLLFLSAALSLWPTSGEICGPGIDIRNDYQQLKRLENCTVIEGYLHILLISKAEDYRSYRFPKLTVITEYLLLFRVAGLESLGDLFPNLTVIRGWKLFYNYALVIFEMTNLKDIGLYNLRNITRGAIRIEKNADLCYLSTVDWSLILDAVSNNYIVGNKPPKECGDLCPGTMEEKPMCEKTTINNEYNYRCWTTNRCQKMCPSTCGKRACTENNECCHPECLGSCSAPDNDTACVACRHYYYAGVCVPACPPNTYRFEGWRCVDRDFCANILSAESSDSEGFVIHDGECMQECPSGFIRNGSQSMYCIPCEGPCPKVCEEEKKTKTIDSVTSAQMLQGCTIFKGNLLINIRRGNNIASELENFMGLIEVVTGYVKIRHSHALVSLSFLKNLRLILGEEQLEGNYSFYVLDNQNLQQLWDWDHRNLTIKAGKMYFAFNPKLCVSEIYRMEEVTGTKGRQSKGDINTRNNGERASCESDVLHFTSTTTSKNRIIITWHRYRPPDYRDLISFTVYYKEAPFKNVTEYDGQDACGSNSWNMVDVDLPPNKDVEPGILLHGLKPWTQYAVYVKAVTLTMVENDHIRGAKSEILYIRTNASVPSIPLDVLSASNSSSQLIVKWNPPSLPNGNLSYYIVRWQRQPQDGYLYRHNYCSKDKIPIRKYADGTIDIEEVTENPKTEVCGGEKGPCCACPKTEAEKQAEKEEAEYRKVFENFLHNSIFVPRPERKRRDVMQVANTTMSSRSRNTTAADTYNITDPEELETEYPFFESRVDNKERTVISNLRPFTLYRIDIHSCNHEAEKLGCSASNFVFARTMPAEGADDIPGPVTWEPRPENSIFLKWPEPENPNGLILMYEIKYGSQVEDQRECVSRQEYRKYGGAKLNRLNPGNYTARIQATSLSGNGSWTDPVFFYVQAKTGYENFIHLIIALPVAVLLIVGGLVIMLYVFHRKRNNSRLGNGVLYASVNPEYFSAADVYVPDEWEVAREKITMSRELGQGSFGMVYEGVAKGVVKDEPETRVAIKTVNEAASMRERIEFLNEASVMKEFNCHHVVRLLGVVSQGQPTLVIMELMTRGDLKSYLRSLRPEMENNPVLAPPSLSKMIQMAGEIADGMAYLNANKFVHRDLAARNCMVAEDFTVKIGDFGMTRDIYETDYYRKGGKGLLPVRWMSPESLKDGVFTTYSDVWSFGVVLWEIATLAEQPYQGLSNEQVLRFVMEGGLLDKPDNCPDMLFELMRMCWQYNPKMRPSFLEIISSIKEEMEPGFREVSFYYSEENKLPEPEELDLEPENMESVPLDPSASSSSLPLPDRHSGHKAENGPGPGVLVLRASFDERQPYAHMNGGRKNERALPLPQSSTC
Chain of UniProt Q96SB4 (whole entry, looked up): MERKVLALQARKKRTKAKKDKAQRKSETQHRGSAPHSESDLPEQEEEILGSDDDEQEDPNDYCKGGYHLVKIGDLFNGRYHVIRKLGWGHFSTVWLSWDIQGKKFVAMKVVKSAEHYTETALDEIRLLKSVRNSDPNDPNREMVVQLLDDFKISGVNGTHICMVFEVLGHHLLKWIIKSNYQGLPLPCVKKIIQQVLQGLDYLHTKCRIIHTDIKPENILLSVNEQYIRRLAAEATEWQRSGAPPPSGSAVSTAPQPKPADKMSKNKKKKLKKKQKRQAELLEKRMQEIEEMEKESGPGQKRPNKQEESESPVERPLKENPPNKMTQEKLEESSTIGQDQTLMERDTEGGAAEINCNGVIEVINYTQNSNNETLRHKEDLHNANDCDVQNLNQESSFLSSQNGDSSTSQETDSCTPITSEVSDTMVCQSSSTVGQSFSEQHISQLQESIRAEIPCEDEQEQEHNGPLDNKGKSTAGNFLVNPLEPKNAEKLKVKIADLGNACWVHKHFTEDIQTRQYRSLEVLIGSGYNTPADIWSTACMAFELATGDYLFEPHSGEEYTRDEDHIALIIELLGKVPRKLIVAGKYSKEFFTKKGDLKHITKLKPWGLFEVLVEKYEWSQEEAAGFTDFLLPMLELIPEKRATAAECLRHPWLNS
Chain of UniProt Q06418 (whole entry, looked up): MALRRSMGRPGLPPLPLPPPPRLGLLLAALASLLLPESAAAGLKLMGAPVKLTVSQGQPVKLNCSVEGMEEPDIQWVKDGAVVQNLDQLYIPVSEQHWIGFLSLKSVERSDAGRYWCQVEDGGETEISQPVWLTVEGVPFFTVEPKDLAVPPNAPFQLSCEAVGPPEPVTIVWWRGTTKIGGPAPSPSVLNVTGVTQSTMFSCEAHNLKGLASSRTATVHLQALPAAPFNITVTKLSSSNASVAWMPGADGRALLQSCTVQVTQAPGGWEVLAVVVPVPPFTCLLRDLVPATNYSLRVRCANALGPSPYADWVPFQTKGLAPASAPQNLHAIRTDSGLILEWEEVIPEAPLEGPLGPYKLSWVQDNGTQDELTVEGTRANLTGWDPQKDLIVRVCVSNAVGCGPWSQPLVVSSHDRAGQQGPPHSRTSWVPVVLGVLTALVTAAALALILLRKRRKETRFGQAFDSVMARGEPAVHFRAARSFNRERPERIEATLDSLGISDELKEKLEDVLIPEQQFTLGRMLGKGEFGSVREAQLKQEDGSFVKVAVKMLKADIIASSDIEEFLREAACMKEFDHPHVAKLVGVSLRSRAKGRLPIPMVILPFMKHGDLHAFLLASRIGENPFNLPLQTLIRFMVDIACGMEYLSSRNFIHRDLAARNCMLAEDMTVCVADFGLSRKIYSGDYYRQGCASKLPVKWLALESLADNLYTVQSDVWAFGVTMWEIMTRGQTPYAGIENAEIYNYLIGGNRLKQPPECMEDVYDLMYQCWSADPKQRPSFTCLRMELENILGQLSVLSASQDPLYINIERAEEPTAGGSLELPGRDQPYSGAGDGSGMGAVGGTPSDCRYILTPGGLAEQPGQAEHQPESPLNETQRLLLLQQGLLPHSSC
Chain of UniProt O95747 (whole entry, looked up): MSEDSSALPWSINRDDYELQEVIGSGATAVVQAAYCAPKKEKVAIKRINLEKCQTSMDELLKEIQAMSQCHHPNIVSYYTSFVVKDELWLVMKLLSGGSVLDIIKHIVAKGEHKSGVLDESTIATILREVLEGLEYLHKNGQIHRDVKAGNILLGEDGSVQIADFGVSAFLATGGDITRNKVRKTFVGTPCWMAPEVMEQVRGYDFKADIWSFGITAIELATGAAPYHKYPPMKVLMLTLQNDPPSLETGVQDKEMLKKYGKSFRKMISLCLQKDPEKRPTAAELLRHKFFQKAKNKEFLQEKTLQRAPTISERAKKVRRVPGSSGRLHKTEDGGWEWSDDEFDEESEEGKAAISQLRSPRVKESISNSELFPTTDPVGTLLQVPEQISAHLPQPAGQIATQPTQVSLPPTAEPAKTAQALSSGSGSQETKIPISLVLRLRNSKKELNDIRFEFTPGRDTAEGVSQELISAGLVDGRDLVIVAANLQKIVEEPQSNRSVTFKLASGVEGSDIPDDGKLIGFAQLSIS

Block 1
Cell line: A-375
Concentration: 100 µM
Time: 36 h
| Structure (SMILES) | viability |
| --- | --- |
| CC(C)COc1ccc(CNC(=O)N(Cc2ccc(F)cc2)C2CCN(C)CC2)cc1 | 0.404% |
| CC(C)Cn1cnc2c(N)nc3ccccc3c21 | 89.8% |
| COc1ccc2cc3[n+](cc2c1OC)CCc1cc2c(cc1-3)OCO2 | 46.6% |
| CC1(C)CCC(CN2CCN(c3ccc(C(=O)NS(=O)(=O)c4ccc(NCC5CCOCC5)c([N+](=O)[O-])c4)c(Oc4cnc5[nH]ccc5c4)c3)CC2)=C(c2ccc(Cl)cc2)C1 | 25.3% |
| Cc1ncc([N+](=O)[O-])n1CCO | 79.4% |
| CCCCC1=NC2(CCCC2)C(=O)N1Cc1ccc(-c2ccccc2-c2nnn[nH]2)cc1 | 108% |
| COc1ccnc(C[S+]([O-])c2nc3cc(-n4cccc4)ccc3[nH]2)c1C (centres unmarked) | 72.3% |
| Cc1cccc(Nc2ccncc2S(=O)(=O)NC(=O)NC(C)C)c1 | 93.6% |
| COC(=O)CCc1ccc(OCC(O)CNC(C)C)cc1 (centres unmarked) | 98% |

Block 2
Structure (SMILES): CO[C@@H](C)c1c(Nc2ccc([C@H](N(C)C(=O)C3CCS(=O)(=O)CC3)C(F)(F)F)cc2)cnc2cc(Cl)nn12
Effect on: cell-free assay
Method: competition with immobilised ligand
Concentration: 1 µM
| target | remaining binding [%] |
| --- | --- |
| Non-receptor tyrosine-protein kinase TYK2, JH2 (TYK2, Homo sapiens, UniProt P29597) | 100 |
| LATS2 (Homo sapiens, UniProt Q9NRM7) | 100 |
| STK10 (Homo sapiens, UniProt O94804) | 100 |
| MAP3K12 (Homo sapiens, UniProt Q12852) | 100 |
| DSTYK (Homo sapiens, UniProt Q6XUX3) | 100 |
| OXSR1 (Homo sapiens, UniProt O95747) | 100 |
| HIPK4 (Homo sapiens, UniProt Q8NE63) | 72 |
| PIP4K2C (Homo sapiens, UniProt Q8TBX8) | 91 |
| PHKG1 (Homo sapiens, UniProt Q16816) | 93 |
| PIK3CA (Homo sapiens, UniProt P42336, H1047Y) | 62 |
| STK38L (Homo sapiens, UniProt Q9Y2H1) | 75 |
| Tyrosine-protein kinase JAK3, JH1 (JAK3, Homo sapiens, UniProt P52333) | 99 |
| Tyrosine-protein kinase ABL1, non-phosphorylated (ABL1, Homo sapiens, UniProt P00519, H396P) | 95 |
| FLT3 (Homo sapiens, UniProt P36888, D835V/ITD) | 85 |

Block 3
SMILES: O=C(Nc1cccc(Nc2nccc(Nc3cccc(C(F)(F)F)c3)n2)c1)C1CC1
Effect on: enzyme activity
Mode: inhibitor
Concentration: 0.5 µM
Relative to: control
| target | remaining activity [%] |
| --- | --- |
| TYRO3 (Homo sapiens, UniProt Q06418) | 93.8 |
| SRPK1 (Homo sapiens, UniProt Q96SB4) | 104 |
| SIK2 (Homo sapiens, UniProt Q9H0K1) | 103 |
| MAP3K20 (Homo sapiens, UniProt Q9NYL2) | 110 |
| SGK2 (Homo sapiens, UniProt Q9HBY8) | 118 |
| FLT1 (Homo sapiens, UniProt P17948) | 97 |
| CAMK1 (Homo sapiens, UniProt Q14012) | 95.5 |
| CAMKK1 (Homo sapiens, UniProt Q8N5S9) | 97.9 |
| IGF1R (Homo sapiens, UniProt P08069) | 95.7 |
| PRKCQ (Homo sapiens, UniProt Q04759) | 107 |
| PAK1 (Homo sapiens, UniProt Q13153) | 89.5 |
| CLK1 (Homo sapiens, UniProt P49759) | 102 |
| CSNK1D (Homo sapiens, UniProt P48730) | 111 |
| CSNK1E (Homo sapiens, UniProt P49674) | 110 |
| EPHA2 (Homo sapiens, UniProt P29317) | 87.3 |
| JAK1 (Homo sapiens, UniProt P23458) | 74 |
| TEC (Homo sapiens, UniProt P42680) | 158 |
| PAK6 (Homo sapiens, UniProt Q9NQU5) | 100 |
| PRKCZ (Homo sapiens, UniProt Q05513) | 98.8 |
| RPS6KA3 (Homo sapiens, UniProt P51812) | 100 |
| Cyclin-dependent kinase 2, with cyclin E (CDK2, Homo sapiens, UniProt P24941) | 85.1 |
| CLK2 (Homo sapiens, UniProt P49760) | 87.6 |

Other studies, line by line
| Structure (SMILES) | test system | conditions | measurement | value |
| --- | --- | --- | --- | --- |
| CCC[C@H]1NC(=O)CSC[C@@H](C(=O)OCC)N(C)C(=O)[C@H](CC(C)C)NC(=O)[C@@H](C)N(C)C(=O)[C@H](CC(C)C)NC(=O)[C@H](C)N(C)C(=O)[C@H]2CCCN2C(=O)[C@H](CC(C)C)NC(=O)CN(C)C1=O | hydrocarbon/water | – | logD | 0.689 |
| O=C1CCC(N2Cc3cc(C4CCN(Cc5ccccc5)CC4)ccc3C2=O)C(=O)N1 (centres unmarked) | male ICR mice, plasma | oral, 3.0 mg/kg | oral bioavailability | 64.4% and 69.9% |
